Published values pooled from the literature.
Each line is one published result; not all experiments were run side by side.
Organism: Staphylococcus aureus

Compound | assay | test system | setting | MIC
CN(C)CCCNCCCNC(=O)[C@@H]1NC(=O)[C@@H]2Cc3ccc(cc3)Oc3cc4cc(c3O)-c3ccc5c(c[nH]c5c3)C[C@@H](NC(=O)C(N)c3ccc(O)cc3)C(=O)N[C@H](c3ccc(O)cc3)C(=O)N[C@H]4C(=O)N[C@@H](C(=O)N2C)c2ccc(cc2)Oc2cc1ccc2O (stereo partly shown) |  | ATCC 33591 MRSA, Mueller-Hinton broth |  | > 128 µg/mL
CC[C@H](C)c1occ2c(=O)c(C(=O)O)c(O)cc-2c1C | microbial growth, broth dilution | ATCC700699 MRSA | drug-resistant strain | 50 µM
CC(C)CCCCCCCCC/C=C/C(=O)N[C@@H](CC(=O)O)C(=O)N[C@H]1CNC(=O)[C@@H]2CCCN2C(=O)[C@H](C(C)C)NC(=O)[C@@H]([C@@H](C)O)NC(=O)CNC(=O)[C@H](CC(=O)O)NC(=O)CNC(=O)[C@H](CC(=O)O)NC(=O)[C@H](CC(=O)O)NC(=O)[C@H]2CCCCN2C1=O |  | MRSA USA300 | 16 h, 37 °C, added: Ca2+ 10 mM | 4 µg/mL
CC(=O)N[C@@H](CCCNC(=N)N)C(=O)N[C@@H](Cc1c[nH]c2ccccc12)C(=O)N[C@@H](CCCNC(=N)N)C(=O)N[C@@H](Cc1c[nH]c2ccccc12)C(=O)N[C@@H](Cc1c[nH]c2ccccc12)C(=O)N[C@@H](CCCCN)C(=O)N[C@@H](Cc1ccccc1)C(=O)N[C@H](C(N)=O)C(C)C |  | MRSA ATCC 33591, Mueller-Hinton broth | overnight, 37 °C | 11.3 µM
CC[C@H](C)[C@H](N)C1=N[C@H](C(=O)N[C@@H](CC(C)C)C(=O)N[C@H](CCC(=O)O)C(=O)N[C@H](C(=O)N[C@H]2CCCCNC(=O)[C@H](CC(N)=O)NC(=O)[C@@H](CC(=O)O)NC(=O)[C@H](Cc3c[nH]cn3)NC(=O)[C@@H](CC(C)C)NC(=O)[C@H]([C@@H](C)CC)NC(=O)[C@@H](CCCN)NC2=O)[C@@H](C)CC)CS1 |  | USA300 MRSA | 18 h, 37 °C, added: ZnSO4 0.3 mM | 4 µg/mL
C[C@H]1COc2c(N3CCN(C)CC3)c(F)cc3c(=O)c(C(=O)O)cn1c23 | broth microdilution | multidrug-resistant |  | 25 µM
CCCN1CCNC1=[S+][Ag-3]([O][N+](=O)[O-])([P+](c1ccccc1)(c1ccccc1)c1ccccc1)[P+](c1ccccc1)(c1ccccc1)c1ccccc1 | agar dilution | MTCC 740 | 24 h, 37 °C | 50 µg/mL
C[C@@H](N)[C@H](O)CCCCCCCC(=O)CCCCCCCCCCCCCC[C@@H](O[C@@H]1O[C@H](CO)[C@@H](O)[C@H](O)[C@H]1O)[C@@H](N)CO | microbial growth, resazurin | ATCC12600 | 6 h | 11.8 µM
CC[C@H](C)[C@H](NC(=O)[C@H](NC(=O)[C@@H](CCC(N)=O)NC(=O)[C@@H](N)COC(=O)[C@@H](NC(=O)[C@@H](Cc1ccccc1)NC)[C@@H](C)CC)[C@@H](C)CC)C(=O)N[C@@H](CO)C(=O)N[C@H]1C(=O)N[C@@H](C)C(=O)N[C@@H](C2CCCCC2)C(=O)N[C@@H]([C@@H](C)CC)C(=O)O[C@H]1C | broth microdilution | ATCC 29213, MSSA, Mueller-Hinton broth | 16 h, 37 °C | 0.25 µg/mL
COc1ccc2ccc3c(c2c1)C=[N+]1C2CCCCC2[N+]2=Cc4ccc(-c5ccccc5)cc4[O][Au-]21[O]3.F[P-](F)(F)(F)(F)F (stereo not shown) | bacterial growth, broth microdilution | vancomycin-intermediate | 24 h | > 20 µM
CCCCc1ccc(N2C(=O)/C(=N\NC(=N)N)c3cc([N+](=O)[O-])ccc32)cc1 | broth microdilution | BAA41 MRSA | 18 h, 37 °C | > 192 µg/mL
O=C1c2ccccc2NC(c2ccc(O)c(O)c2)N1/N=C/c1ccc(O)c(O)c1 (stereo not shown) | microbial growth, broth dilution |  | 24 h, drug-resistant strain, clinical isolate | 64 µg/mL
CCCO[C@H]1[C@H](O)[C@@H](N)[C@@H](O[C@H]2[C@H](O[C@@H]3O[C@H](CO)[C@@H](O[C@H]4O[C@@H](CN)[C@@H](O)[C@H](O)[C@H]4N)[C@H]3O)[C@@H](O)[C@H](N)C[C@@H]2N)O[C@@H]1CO | broth microdilution | MRSA isolate AG 044 |  | 8 µg/mL
COc1ccc2c3c(oc2c1CC=C(C)C)-c1cc(CC=C(C)C)c(O)cc1OC3 |  |  |  | inactive
C=CCCNS(=O)(=O)c1ccc(-n2nnc(/C(C)=N/NC(=N)N)c2C)cc1 | microbial growth, broth dilution | MRSA USA300 | drug-resistant strain | > 64 µg/mL
CC(C)C[C@@H]1NC(=O)[C@H](C)NC(=O)[C@H](NC(=O)[C@H](CO)NC(=O)[C@@H](CCCCN)NC(=O)[C@@H](CC(C)C)N(C)C(=O)[C@@H](N)Cc2ccccc2)[C@H](C)OC(=O)[C@H](CC(C)C)NC1=O |  | MSSA ATCC 29213 | TFA salt | > 32 µg/mL
c1ccc(CN2CCOCCOCCN(CCCCCCCCCCN3CCOCCOCCN(CCCCCCCCCCN4CCOCCOCCN(Cc5ccccc5)CCOCCOCC4)CCOCCOCC3)CCOCCOCC2)cc1 | microbial growth |  |  | 6 µM
N=C(N)NCCC[C@@H]1NC(=O)[C@H](CCCNC(=N)N)NC(=O)[C@H](CCCNC(=N)N)NC(=O)[C@H](CCCNC(=N)N)NC(=O)[C@H](Cc2c[nH]c3ccccc23)NC(=O)[C@H](CCCNC(=N)N)NC(=O)[C@H](CCCNC(=N)N)NC(=O)[C@@H](N)CCCCn2cc(nn2)C[C@@H](C(N)=O)NC1=O |  |  | 24 h, 37 °C, in 0.01% acetic acid | 62.5 µg/mL
CCCCCCCCCCCCCC(=O)N[C@H](CCN)C(=O)N[C@H](C(=O)N[C@H]1CCNC(=O)[C@H](CC(=O)O)NC(=O)[C@H](C(C)C)NC(=O)[C@@H](Cc2ccc(O)cc2)NC(=O)[C@H](CCN)NC(=O)[C@H](CC(C)C)NC(=O)[C@@H](Cc2ccccc2)NC(=O)[C@H](CCN)NC(=O)[C@H](CC(C)C)NC1=O)[C@@H](C)O | broth microdilution | BNCC 186335 |  | 4 µg/mL

Some of these lines once more:
Compound | assay | test system | setting | MIC
CC[C@H](C)[C@H](NC(=O)[C@H](NC(=O)[C@@H](CCC(N)=O)NC(=O)[C@@H](N)COC(=O)[C@@H](NC(=O)[C@@H](Cc1ccccc1)NC)[C@@H](C)CC)[C@@H](C)CC)C(=O)N[C@@H](CO)C(=O)N[C@H]1C(=O)N[C@@H](C)C(=O)N[C@@H](C2CCCCC2)C(=O)N[C@@H]([C@@H](C)CC)C(=O)O[C@H]1C | broth microdilution | ATCC 29213, MSSA, Mueller-Hinton broth | 16 h, 37 °C | 0.25 µg/mL
C[C@@H](N)[C@H](O)CCCCCCCC(=O)CCCCCCCCCCCCCC[C@@H](O[C@@H]1O[C@H](CO)[C@@H](O)[C@H](O)[C@H]1O)[C@@H](N)CO | microbial growth, resazurin | ATCC12600 | 6 h | 11.8 µM
